Experimental data collected from several papers.
Protocols differ between the studies behind these lines.
CDK16: Cyclin-dependent kinase 16 (CDK16, Homo sapiens, UniProt Q00536)
CDK16 with cyclin Y: Cyclin-dependent kinase 16, with cyclin Y (CDK16, Homo sapiens, UniProt Q00536)

Structure (SMILES) = Nc1ncc2c(n1)-c1c([nH]c3ccc(C4=CCOCC4)cc13)CCC2; target = CDK16; assay = binding, competition with immobilised ligand; setting = 1 µM; endpoint = remaining binding; result = 77%
Structure (SMILES) = Nc1ncc(-c2cc(-c3cnn(CC(F)(F)F)c3)ncc2F)nc1C(=O)NC1CNCC(F)C1 (stereo not shown); target = CDK16 with cyclin Y; assay = enzyme activity; setting = 1 µM; scale = relative to: DMSO control; endpoint = remaining activity; result = 80.5%
Structure (SMILES) = O=C(Cc1ccc(OCc2ccccc2)cc1)NC1(C(=O)O)CCN(C(=O)c2ccc(-c3cccc(Cl)c3)cc2)CC1; target = CDK16 with cyclin Y; assay = enzyme activity, inhibitor; setting = 10 µM; endpoint = activity vs control; result = 149%
Structure (SMILES) = COc1ccc(NC(=O)Nc2ccc3c(c2)C(=O)N(C(C)CO)CC(C)C(CN(C)Cc2ccc4c(c2)OCO4)O3)cc1 (stereo not shown); target = CDK16; assay = binding, competition with immobilised ligand; setting = 10 µM; endpoint = remaining binding; result = 95%
Structure (SMILES) = COc1c(Cl)cccc1Nc1c(-c2ccncc2C#C[C@@]2(C)CCCN2C(=O)/C=C/CN(C)C)[nH]c2c1C(=O)NCC2; target = CDK16; assay = binding, competition with immobilised ligand; setting = 3 µM; endpoint = remaining binding; result = 85%
Structure (SMILES) = CN1CCN(Cc2ccc(NC(=O)c3cccc(C#Cc4cnc(N)c5ncccc45)c3)cc2C(F)(F)F)CC1; target = CDK16; assay = cell-free assay, competition with immobilised ligand; setting = 50 nM; endpoint = remaining binding; result = 66%
Structure (SMILES) = CNC(=O)C1CCN(c2cc(C)c(F)cc2NC(=O)c2ccc(-c3cc(O)ccc3C)c(C)c2)CC1; target = CDK16; assay = binding, competition with immobilised ligand; setting = 1 µM; endpoint = remaining binding; result = 75%
Structure (SMILES) = CNS(=O)(=O)Nc1nccc(Cc2c(C)c3ccc(Oc4ncccc4F)cc3oc2=O)c1F; target = CDK16; assay = binding, competition with immobilised ligand; setting = 10 µM; endpoint = remaining binding; result = 100%
Structure (SMILES) = C=CC(=O)N1CCCC(n2c(=O)c3ncccc3n(Cc3ccc(Oc4ccccc4)cc3)c2=O)C1 (stereo not shown); target = CDK16; assay = cell-free assay, competition with immobilised ligand; setting = 1 µM; endpoint = remaining binding; result = 67%
Structure (SMILES) = Cc1cnc2nc1Nc1cccc(c1)COC/C=C/COCc1cc(ccc1OCCN1CCOCC1)N2; target = CDK16; assay = binding, competition with immobilised ligand; setting = 0.1 µM; endpoint = remaining binding; result = 82%
Structure (SMILES) = COc1cc(Nc2nc(C)cc(-c3cnn4nc(OC)ccc34)n2)cc(C(F)(F)F)c1; target = CDK16; assay = inhibitor; setting = 1 µM, PCTK1; scale = relative to: control; endpoint = remaining activity; result = 74%
Structure (SMILES) = CC(C)=CC1OC(C)(C)C2C=C3C(=O)C(Cl)=CC(O)C3C3C(O)C4OC4C(=O)C132 (stereo not shown); target = CDK16; assay = cell-free assay, competition with immobilised ligand; setting = 10 µM; endpoint = remaining binding; result = 70%
Structure (SMILES) = Cc1ccc(-c2c(/C=C(\C#N)C(=O)NC(C)C)n(CCCO)c3ncnc(N)c23)cc1; target = CDK16; assay = cell-free assay, competition with immobilised ligand; setting = 1 µM; endpoint = remaining binding; result = 100%

Repeated from above:
Structure (SMILES) = C=CC(=O)N1CCCC(n2c(=O)c3ncccc3n(Cc3ccc(Oc4ccccc4)cc3)c2=O)C1 (stereo not shown); target = CDK16; assay = cell-free assay, competition with immobilised ligand; setting = 1 µM; endpoint = remaining binding; result = 67%
Structure (SMILES) = Nc1ncc2c(n1)-c1c([nH]c3ccc(C4=CCOCC4)cc13)CCC2; target = CDK16; assay = binding, competition with immobilised ligand; setting = 1 µM; endpoint = remaining binding; result = 77%
